Experimental data from different studies.
Numbered parts are unrelated; each lists some results of a single study. Substitutions count along the parent as printed.

Set 1
Target: RNA binding protein fox-1 homolog 2, RRM domain, GST-SBP tag (RBFOX2, Homo sapiens, UniProt O43251-10, residues 100-194)
Method: RNA Bind-n-Seq
Molecule type: RNA
Medium: in vitro
Tested at: 365 nM
Setting: natural RNA segment, single round, ends assumed
Baseline: no-protein control
Reading: higher = stronger binding
Shared flanks, not repeated: GGGAGUUCUACAGUCCGACGAUC … UGGAAUUCUCGGGUGCCAA
Target sequence (chain): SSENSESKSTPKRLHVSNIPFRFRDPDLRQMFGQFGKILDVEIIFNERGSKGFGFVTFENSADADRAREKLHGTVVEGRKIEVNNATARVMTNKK
Oligonucleotide	RBNS enrichment (R)
GAACUAGGACUUUCCUCUGUGAAGAGGAUGCCUCUGAAGAAAUUUUAAACUGGUGAUUUUGGUUGCACUGCUCACUUUAAGAGUUAACAUGCUCACUUGUUAGUAUUUCU	0.904
GCCCGCCCGGUGCCUCCCCCUGCUCCUGCAUGGCGGGACGGGCAGCGCCUCCUGCGGCCCCUCCAGUGCUGUCCCUCCGCUGUCUAGCAGCCCUAGGGGCGUGUCAGCCG	0.796
ACAGUCAAGGACUACGUUAAAGGUCUCUGGAGAGAGUAUAAAGAGAUUAUUUUUCAUCGUUUUUAAAAGGUUUUGUUUUAAUUUGCACACCUGUGCACAAGGGAAAUAAC	1.37
UCCUACUUCGUUCCCCCUUUGUAAGUCUCUGGAGGAUGUGACCAAGGUCUCCCGUGAGUGUCUGUCGGGCACCCAGGUUGUAGGUGUUUGAGAUUCUGUAGGAGGGAGGG	0.761
CCUCAUUGGUCUUCCUCCCACCUGUCCCUUUUCCGGGAAGUUGUGGAAUUGUUGGAAGAAGAGUUUGCAGAAGGUUAGGAAUGGGUAGAUAGCUAAGUCCUAAUCUAUGG	0.459
GCCUCAACCAACUUAGUGACUUGUUUAGAAAAAAAAGACAAAAAAGUAAAAAUAAAAACAAAAAAGUUGGAAGGCAGAAACCAUUAAAAAACAAAAAGCCAACAACCCAG	0.785
UUCUACUCUUAAUACUUCACUGUGAUGUUAACUUGGAAGACCUGCUGAAGAUUAGUCUUUUAAUUUUAGACCAUUAUAUCUGCUGAGCACAGGAUUCUUAUCAUUUGUAA	0.444
CUCAUUUACAAACUUAGGUUGGGAGCUUGGGUUUCCUGUCUCACUUCCAAAAGCCUUCAAGAUGGCAGCAGAUGGACACACCCUCUCAUUUCUUGUGUCUUGUCUGUCAG	0.275
UUAGCCUGUCUGUCACACGACGGAAUGGAUACUGGGCCCGGGGACCACUUUCAUACUCACGUCCUCAUCCUUGGAUACCCAGGGGAGGGCGAACCGUUUUCGCUCGUGUG	0.265
UUGUUCUGGUGGGUGUGUCACGCUCCCAGAAGACUGAAUUCAUGGUAGGAUCACUCGCAAGGCCUUGUGAAGGAGUCUUACCUAAAACGAAAGAAAUAUCAGGGACUUUU	0.239
CAGGGACCUGUUUCCCAAGAAGAGAGCCUGAUAUUCAAAGGGUGGGACAGCAUCUGCCCGACUUCCCGUAAAGGCAUAAAGGCACGCAGCCCAAAAGACGGGAAGAGGAG	2.38
CACGUGCAGCUCAUGACAAUCUGUAGGAUAACAAUCAGUGUGGAUUUCCACUCUUUUCAGUCCUUCAUGUUAAAGAUUUAGACACCACAUACAACUGGUAAAGGACGUUU	0.269

Set 2
Target: Sal-like protein 4, full length isoform B (SALL4, Homo sapiens, UniProt Q9UJQ4-2, residues 1-616)
Method: universal PBM
Molecule type: double-stranded DNA, one strand shown
Medium: in vitro
Tested at: not given
Setting: 8-mer, flanks averaged, mean of replicates
Reading: higher = stronger binding
Oligonucleotide	E-score
GCCCGCCA	-0.254
AACTTAAA	0.235
AAAGTAAG	0.154
GTCCTTGA	-0.00719
CCAACTGA	-0.0111
ACGCTCCT	-0.104
CATACCCA	-0.00173
GATCATAA	0.336
AGGCCGGA	-0.338
ACTCCTTC	-0.125
CATGTGTC	-0.088
AGGTCTCC	-0.105
GTGTATGA	0.233
ATGCTCCA	-0.183
GTTTTGGA	0.114
AGAAGGTC	-0.0335
AGAACATA	0.163
GCTTATAA	0.286
CTCTTATC	0.172
AAACGTGC	0.0045
AGGATAAG	0.0295
GCGTACTA	-0.0323
ACTTGACG	-0.0303

Set 3
Target: Histone acetyltransferase KAT6A, both winged helices, GST fusion (KAT6A, Homo sapiens, UniProt Q92794, residues 1-181)
Method: protein binding microarray
Molecule type: double-stranded DNA, one strand shown
Medium: in vitro
Tested at: not given
Setting: 8-mer, flanks averaged, mean of 2 arrays, mostly near background
Baseline: not given
Reading: higher = stronger binding
Residues (chain): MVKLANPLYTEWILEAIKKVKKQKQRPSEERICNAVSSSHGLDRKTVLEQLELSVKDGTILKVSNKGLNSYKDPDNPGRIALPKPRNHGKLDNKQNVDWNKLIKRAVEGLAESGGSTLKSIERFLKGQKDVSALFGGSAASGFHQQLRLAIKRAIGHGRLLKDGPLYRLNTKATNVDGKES
Oligonucleotide	E-score
GCTGTCCA	-0.0418
CTTTCTGC	0.0536
GCGGTAGC	0.226
GGGATGAA	-0.146
ACATAGGC	-0.144
ATATAAAT	-0.00517
CTCTTCGC	0.0686
TCTCCTCA	-0.0648
ACCCCGAG	-0.0131
GCGTCTAC	0.235
ATGCGGCG	0.32
AACCACCA	-0.266
GGAGAAGA	-0.0953
CGAACGAA	-0.0257
AGCGGAAT	0.186
AATCAAAC	0.000375
AACTGACC	-0.0507
CTGGGAAC	-0.0568
GACTTATA	-0.0782
ACAAATGC	-0.0772
AGCGGCAG	0.266
GGGATCAA	-0.0522
GGACGAGA	0.018
AGGAAGGA	-0.277
ACTGAGAA	-0.012

Set 4
Target: ATF2, bZIP domain (human)
Method: DHFR protein complementation
Medium: yeast
Setting: single substitutions, most at no-binding floor
Baseline: wild-type JUN-FOS pair
Reading: higher = stronger binding
Starting sequence: JUN, bZIP domain (human); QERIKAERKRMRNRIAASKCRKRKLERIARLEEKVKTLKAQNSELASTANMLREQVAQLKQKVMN; partner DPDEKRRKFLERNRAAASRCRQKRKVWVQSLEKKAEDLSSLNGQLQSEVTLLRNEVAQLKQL
Substitution	binding fitness [natural log]
A49C	-1.36
V56Y	-1.45
K34P	-1.51
L52D	-1.61
E33G	-1.45
A40P	-1.43
L38D	-1.53
E44S	-1.33
I28V	-1.2
L38A	-1.39
E33F	-1.49
V56E	-1.5
K39W	-1.54
I28M	-1.32
K36W	-1.34
L52N	-1.58

Set 5
Organism: Saccharomyces cerevisiae
Effect on: binding
Method: yeast competitive growth sequencing
Molecule type: peptide
Strain: cyclin A1-Cln2 strain
Medium: peptide tiling library
Setting: pooled screen
Reading: direction not given
Molecule	enrichment score
GFGFLLFICKLTF	-1.32
RKLHFEDEVT	-0.0112
ARKRLELGNLGNPQ	-1.15
VSRNLRSSLKSSLHTL	-2.84
RRVLCFDS	-1.23
LRRQLSFSED	0.411
NNIRKALSFDNRGEEH	-1.63
PQWPCGKHKRVLIFAS	-1.11
SCCKRKLVVGNGPEGP	-0.668
LRRKLFLDGNGSIS	-1.42

Set 6
Target: ABI1, truncated, D143A, DHFR fusion (Arabidopsis thaliana)
Method: DHFR PCA, deep sequencing
Medium: yeast
Setting: methotrexate growth selection, single substitutions
Together with: (+)-ABA 1.4 µM
Baseline: wild-type fitted maximum
Reading: higher = stronger binding
Starting sequence: PYL1, truncated, DHFR fusion (Arabidopsis thaliana); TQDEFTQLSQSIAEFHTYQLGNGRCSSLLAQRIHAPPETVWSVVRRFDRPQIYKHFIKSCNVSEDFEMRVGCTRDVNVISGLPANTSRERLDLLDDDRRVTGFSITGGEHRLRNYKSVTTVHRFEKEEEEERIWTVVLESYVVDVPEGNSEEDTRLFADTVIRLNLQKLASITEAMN; partner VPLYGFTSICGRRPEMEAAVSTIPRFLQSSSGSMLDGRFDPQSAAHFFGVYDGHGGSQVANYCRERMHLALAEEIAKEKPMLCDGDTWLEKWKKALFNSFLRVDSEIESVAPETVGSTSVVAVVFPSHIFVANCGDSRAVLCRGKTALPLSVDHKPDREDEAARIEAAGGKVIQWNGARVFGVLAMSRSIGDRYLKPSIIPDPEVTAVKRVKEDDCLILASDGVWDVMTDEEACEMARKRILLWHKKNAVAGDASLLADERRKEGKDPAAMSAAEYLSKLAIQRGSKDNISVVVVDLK
Substitution	relative binding score [%]
V43M	14.9
I133R	39.4
A84F	73.2
H16E	9.34
A35H	-23.5
S26L	-7.81
A35F	-33.4
D153H	-4.44
A35S	11.7
V62Q	20.5
D3K	21.7
E129K	61.1
Y18W	39.6
E89L	-2.58
K58G	5.24
F124N	10.4
D159W	-9.44
H34G	33.8
K58C	2.62
R45G	-13.8
Q31E	0.518
V161D	14.3
R90G	-2.9
W41T	-3.54
L20V	69.6

Some of these lines once more (set 3):
Oligonucleotide	E-score
AACTGACC	-0.0507
CTGGGAAC	-0.0568
GACTTATA	-0.0782
ACAAATGC	-0.0772
AGCGGCAG	0.266
GGGATCAA	-0.0522
GGACGAGA	0.018
AGGAAGGA	-0.277
ACTGAGAA	-0.012
